Published values from different studies.
Every numbered part comes from another study and shows a few of its results, in no order.
Chain of UniProt Q8WU08 (whole entry, looked up): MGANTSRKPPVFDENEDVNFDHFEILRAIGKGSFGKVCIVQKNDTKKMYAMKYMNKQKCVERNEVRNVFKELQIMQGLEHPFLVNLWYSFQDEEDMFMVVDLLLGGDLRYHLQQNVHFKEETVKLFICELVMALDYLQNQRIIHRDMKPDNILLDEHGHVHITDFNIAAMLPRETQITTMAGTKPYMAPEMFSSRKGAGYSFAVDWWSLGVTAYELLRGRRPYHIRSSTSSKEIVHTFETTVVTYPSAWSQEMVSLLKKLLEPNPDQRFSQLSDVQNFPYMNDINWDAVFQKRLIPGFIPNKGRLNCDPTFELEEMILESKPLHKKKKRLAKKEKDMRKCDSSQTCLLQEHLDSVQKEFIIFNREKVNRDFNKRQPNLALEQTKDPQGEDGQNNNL
Chain of UniProt P35916 (whole entry, looked up): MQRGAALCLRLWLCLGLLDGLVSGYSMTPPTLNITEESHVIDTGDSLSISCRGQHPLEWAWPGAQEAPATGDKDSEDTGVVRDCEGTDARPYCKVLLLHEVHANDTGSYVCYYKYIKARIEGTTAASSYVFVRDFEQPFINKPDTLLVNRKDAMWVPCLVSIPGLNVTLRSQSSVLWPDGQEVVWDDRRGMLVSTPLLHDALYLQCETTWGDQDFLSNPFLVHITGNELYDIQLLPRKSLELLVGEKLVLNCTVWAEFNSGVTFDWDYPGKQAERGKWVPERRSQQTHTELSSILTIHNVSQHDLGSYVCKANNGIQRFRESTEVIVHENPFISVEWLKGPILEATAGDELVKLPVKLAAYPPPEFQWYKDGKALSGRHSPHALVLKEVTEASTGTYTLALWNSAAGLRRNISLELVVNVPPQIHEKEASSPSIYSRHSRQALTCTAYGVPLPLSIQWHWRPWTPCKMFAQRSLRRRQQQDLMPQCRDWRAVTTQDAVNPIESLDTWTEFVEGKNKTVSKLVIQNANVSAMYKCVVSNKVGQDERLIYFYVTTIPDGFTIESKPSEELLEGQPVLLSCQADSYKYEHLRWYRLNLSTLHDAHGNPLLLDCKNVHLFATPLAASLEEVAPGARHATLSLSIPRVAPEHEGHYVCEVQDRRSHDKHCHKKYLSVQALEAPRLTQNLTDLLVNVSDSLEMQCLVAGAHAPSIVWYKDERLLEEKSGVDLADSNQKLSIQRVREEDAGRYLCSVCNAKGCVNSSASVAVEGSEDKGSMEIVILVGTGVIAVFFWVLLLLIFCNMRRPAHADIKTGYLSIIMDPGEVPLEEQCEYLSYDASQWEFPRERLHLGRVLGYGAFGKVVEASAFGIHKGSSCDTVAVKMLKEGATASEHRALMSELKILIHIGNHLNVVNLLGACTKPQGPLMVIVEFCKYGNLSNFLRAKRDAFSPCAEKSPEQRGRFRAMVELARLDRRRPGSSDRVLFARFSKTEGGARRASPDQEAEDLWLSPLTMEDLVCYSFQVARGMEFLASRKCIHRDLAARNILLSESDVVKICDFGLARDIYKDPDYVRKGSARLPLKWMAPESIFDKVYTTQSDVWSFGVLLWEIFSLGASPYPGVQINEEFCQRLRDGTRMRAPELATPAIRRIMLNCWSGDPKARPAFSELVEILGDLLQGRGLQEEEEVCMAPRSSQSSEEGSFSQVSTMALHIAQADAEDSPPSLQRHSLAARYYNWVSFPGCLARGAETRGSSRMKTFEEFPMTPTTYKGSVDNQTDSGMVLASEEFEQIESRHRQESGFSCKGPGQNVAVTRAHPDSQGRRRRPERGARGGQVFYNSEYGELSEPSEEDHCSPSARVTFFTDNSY

Study 1
SMILES: Cn1nc(C(=O)NCc2ccc(C(=O)O)cc2)cc1-c1ccc2[nH]ccc2c1
Tested at: 0.1 µM
For Dual specificity mitogen-activated protein kinase kinase 3 (MAP2K3, Homo sapiens, UniProt P46734); cell-free assay, competition with immobilised ligand: remaining binding read 93%.
Calcium/calmodulin-dependent protein kinase type 1B (PNCK, Homo sapiens, UniProt Q6P2M8); cell-free assay, competition with immobilised ligand — remaining binding: 100%.
For Serine/threonine-protein kinase SIK1 (SIK1, Homo sapiens, UniProt P57059); competition binding: remaining binding read 100%.
For Tyrosine-protein kinase ABL1, phosphorylated (ABL1, Homo sapiens, UniProt P00519, E255K); binding, competition with immobilised ligand: remaining binding read 65%.
The remaining binding was 97% (Cyclin-dependent kinase 18 (CDK18, Homo sapiens, UniProt Q07002); cell-free assay, competition with immobilised ligand).
It gave 89% for remaining binding (Serine/threonine-protein kinase B-raf (BRAF, Homo sapiens, UniProt P15056, V600E); cell-free assay, competition with immobilised ligand).
It gave 92% for remaining binding (Serine/threonine-protein kinase 38 (STK38, Homo sapiens, UniProt Q15208); cell-free assay, competition with immobilised ligand).
Phosphatidylinositol 4,5-bisphosphate 3-kinase catalytic subunit delta isoform (PIK3CD, Homo sapiens, UniProt O00329); cell-free assay, competition with immobilised ligand — remaining binding: 97%.
For Serine/threonine-protein kinase 25 (STK25, Homo sapiens, UniProt O00506); cell-free assay, competition with immobilised ligand: remaining binding read 91%.
It gave 43% for remaining binding (Vascular endothelial growth factor receptor 3 (FLT4, Homo sapiens, UniProt P35916); cell-free assay, competition with immobilised ligand).
Serine/threonine-protein kinase 32A (STK32A, Homo sapiens, UniProt Q8WU08); cell-free assay, competition with immobilised ligand — remaining binding: 92%.
It gave 83% for remaining binding (Calcium/calmodulin-dependent protein kinase type II subunit delta (CAMK2D, Homo sapiens, UniProt Q13557); cell-free assay, competition with immobilised ligand).
It gave 72% for remaining binding (Serine/threonine-protein kinase ICK (CILK1, Homo sapiens, UniProt Q9UPZ9); cell-free assay, competition with immobilised ligand).

Study 2
Target: Protein kinase C gamma type (PRKCG, Homo sapiens, UniProt P05129)
Read-out: enzyme activity
Action: inhibitor
Tested at: 0.5 µM
Baseline: control
The remaining activity of `Ic1cccc(CSc2nnc(-c3ccncc3)o2)c1` is reported as 98.7%.
The remaining activity of `c1ccc(-c2cnc(Nc3ccc(OCCN4CCCC4)cc3)s2)cc1` is reported as 92.5%.
With `Cc1cn(-c2cc(NC(=O)c3ccc(C)c(Nc4nccc(-c5cccnc5)n4)c3)cc(C(F)(F)F)c2)cn1` the remaining activity was 81.7%.
The remaining activity of `Cc1nc2cc3nc(-c4cccs4)cnc3cc2n1C` is reported as 94.9%.
With `O=c1cc(-c2cccc3c2Sc2ccccc2S3)oc(N2CCOCC2)c1` the remaining activity was 96.9%.
`COc1cc2ncnc(Nc3ccc(O)c(Br)c3)c2cc1OC` gave a remaining activity of 94.1%.
`Cc1cc2ncc(-c3ccccc3)nc2cc1C` gave a remaining activity of 96.9%.
For `O=C(Nc1cccc(Nc2nccc(Nc3cccc(C(F)(F)F)c3)n2)c1)C1CC1`, the remaining activity was 90.9%.
For `O=C1C(Cl)=C(N2C(=O)CCC2=O)C(=O)c2ccccc21`, the remaining activity was 97.5%.
For `CCN(CC)CCNC(=O)c1c(C)[nH]c(/C=C2\C(=O)Nc3ccc(F)cc32)c1C`, the remaining activity was 83.8%.

Study 3
SMILES: COc1ccc(-c2c(Nc3ccccn3)[nH]c3c(C4=CCCCC4)c(-c4ccccc4)nn3c2=O)cc1
Matrix: plasma
Route: oral
Notes: single dose
The “plasma concentration, geometric mean” was 148 ng/mL (LC-MS/MS; human; 200 mg twice daily, 72 h).
For cancer patients; 400 mg, 6 h post-dose: “plasma concentration, geometric mean” read 1110 ng/mL.
It gave 172 ng/mL for “plasma concentration, geometric mean” (cancer patients; 400 mg, 48 h post-dose).
cancer patients; 200 mg, 8 h post-dose — “plasma concentration, geometric mean”: 1260 ng/mL.
It gave 315 ng/mL for “plasma concentration, geometric mean” (cancer patients; 150 mg, 48 h post-dose).
It gave 790 ng/mL for “plasma concentration, geometric mean” (LC-MS/MS; human; 200 mg twice daily, 24 h).

Study 4
Target: DNA polymerase theta, ATPase domain (POLQ, Homo sapiens, UniProt O75417)
Chain of UniProt O75417 (whole entry, unmodified, looked up): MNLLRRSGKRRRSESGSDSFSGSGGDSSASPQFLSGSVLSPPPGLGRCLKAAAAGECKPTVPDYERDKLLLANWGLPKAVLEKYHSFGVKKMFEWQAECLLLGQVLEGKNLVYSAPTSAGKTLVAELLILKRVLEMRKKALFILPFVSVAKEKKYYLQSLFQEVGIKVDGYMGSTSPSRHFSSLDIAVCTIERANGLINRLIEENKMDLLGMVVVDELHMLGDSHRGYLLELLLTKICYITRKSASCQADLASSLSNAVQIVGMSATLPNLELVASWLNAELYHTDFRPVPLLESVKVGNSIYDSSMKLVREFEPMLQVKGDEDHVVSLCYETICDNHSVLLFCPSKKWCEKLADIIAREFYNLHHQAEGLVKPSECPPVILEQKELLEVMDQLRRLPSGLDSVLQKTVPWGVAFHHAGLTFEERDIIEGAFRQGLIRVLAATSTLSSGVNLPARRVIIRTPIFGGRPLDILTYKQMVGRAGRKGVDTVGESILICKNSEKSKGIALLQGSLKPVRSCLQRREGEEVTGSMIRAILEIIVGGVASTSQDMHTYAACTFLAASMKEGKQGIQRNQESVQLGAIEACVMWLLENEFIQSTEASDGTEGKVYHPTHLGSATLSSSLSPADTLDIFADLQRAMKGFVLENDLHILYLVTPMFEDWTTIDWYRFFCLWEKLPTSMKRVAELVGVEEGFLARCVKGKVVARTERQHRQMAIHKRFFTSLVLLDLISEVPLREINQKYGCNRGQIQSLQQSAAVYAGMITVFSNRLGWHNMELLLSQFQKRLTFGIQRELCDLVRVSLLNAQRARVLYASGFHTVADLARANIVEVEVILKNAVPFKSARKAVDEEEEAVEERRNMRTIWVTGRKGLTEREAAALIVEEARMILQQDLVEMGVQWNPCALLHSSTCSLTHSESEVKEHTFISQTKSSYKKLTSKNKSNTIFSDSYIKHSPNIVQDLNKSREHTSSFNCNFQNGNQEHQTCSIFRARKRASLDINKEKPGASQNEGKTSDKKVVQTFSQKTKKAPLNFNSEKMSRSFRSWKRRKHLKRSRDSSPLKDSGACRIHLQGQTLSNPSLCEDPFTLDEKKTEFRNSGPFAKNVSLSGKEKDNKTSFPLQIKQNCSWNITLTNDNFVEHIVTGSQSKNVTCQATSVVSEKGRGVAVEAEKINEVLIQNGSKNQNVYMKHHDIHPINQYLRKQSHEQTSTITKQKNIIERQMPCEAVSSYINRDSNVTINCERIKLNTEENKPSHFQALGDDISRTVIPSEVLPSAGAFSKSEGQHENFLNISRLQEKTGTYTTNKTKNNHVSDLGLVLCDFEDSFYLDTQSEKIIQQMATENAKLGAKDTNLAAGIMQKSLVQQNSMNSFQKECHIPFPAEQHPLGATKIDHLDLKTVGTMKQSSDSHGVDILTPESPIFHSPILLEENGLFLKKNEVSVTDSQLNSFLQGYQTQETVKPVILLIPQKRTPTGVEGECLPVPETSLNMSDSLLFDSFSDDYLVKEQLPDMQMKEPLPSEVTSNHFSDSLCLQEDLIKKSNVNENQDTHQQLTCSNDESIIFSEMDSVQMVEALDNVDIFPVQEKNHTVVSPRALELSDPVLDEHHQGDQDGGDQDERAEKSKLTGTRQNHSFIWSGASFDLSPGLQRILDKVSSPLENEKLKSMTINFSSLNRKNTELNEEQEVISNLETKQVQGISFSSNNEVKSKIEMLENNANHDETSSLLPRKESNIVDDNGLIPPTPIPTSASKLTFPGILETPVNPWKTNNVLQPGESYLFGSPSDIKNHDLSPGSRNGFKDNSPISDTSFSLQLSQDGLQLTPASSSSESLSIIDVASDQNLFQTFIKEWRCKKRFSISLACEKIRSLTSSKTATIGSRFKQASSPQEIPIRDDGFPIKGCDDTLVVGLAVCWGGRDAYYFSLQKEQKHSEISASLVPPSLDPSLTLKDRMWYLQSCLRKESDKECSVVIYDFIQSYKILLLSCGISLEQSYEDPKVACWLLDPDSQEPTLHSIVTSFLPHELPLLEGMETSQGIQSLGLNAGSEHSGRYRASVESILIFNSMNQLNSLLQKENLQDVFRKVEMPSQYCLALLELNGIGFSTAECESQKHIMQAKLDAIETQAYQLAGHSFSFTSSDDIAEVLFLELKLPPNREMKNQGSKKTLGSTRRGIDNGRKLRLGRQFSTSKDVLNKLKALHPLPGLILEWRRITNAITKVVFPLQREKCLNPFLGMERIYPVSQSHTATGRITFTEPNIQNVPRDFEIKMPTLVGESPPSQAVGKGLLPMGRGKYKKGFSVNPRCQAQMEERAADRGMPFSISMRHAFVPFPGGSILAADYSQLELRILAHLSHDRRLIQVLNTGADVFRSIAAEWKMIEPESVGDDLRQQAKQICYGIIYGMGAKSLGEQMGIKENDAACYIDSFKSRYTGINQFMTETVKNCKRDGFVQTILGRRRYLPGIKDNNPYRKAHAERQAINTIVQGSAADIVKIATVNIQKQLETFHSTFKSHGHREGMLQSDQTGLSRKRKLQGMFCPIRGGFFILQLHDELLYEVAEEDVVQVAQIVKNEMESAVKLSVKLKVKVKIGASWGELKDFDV
Read-out: enzyme activity
Action: inhibitor
Tested at: 77 µM
Baseline: untreated
For `COc1ccc(CN2CCN(C(c3ccc(F)cc3)c3ccc(F)cc3)CC2)c(OC)c1OC`, the remaining activity was 102%.
For `CC(C)n1cnc2c(NCCc3ccc(O)cc3)nc(-c3csc4ccccc34)nc21`, the remaining activity was 102%.
With `CN1CCC(=C2c3ccccc3CCc3cccnc32)CC1` the remaining activity was 86.9%.
For `Cn1nc(C(C)(C)C)cc1C(=O)N[C@@H](Cc1cccc(Cl)c1)C(=O)NCC#N`, the remaining activity was 101%.
`O=C1Cc2cc(CCN3CCN(c4nsc5ccccc45)CC3)c(Cl)cc2N1` gave a remaining activity of 97.4%.

Repeated from above (study 4):
For `COc1ccc(CN2CCN(C(c3ccc(F)cc3)c3ccc(F)cc3)CC2)c(OC)c1OC`, the remaining activity was 102%.
For `CC(C)n1cnc2c(NCCc3ccc(O)cc3)nc(-c3csc4ccccc34)nc21`, the remaining activity was 102%.
With `CN1CCC(=C2c3ccccc3CCc3cccnc32)CC1` the remaining activity was 86.9%.
